{"data": "Measured values of several laboratories", "note": "Each line is one published result; not all experiments were run side by side. “And” joins repeats or separate records; there may be more than shown. ± marks the error that the study gave."}
{"Compound": "COc1cc(O)ccc1CCC(c1ccc(O)cc1)c1cc2c(c(C)c1O)OC(c1ccc(O)cc1)CC2 (mixture of isomers)", "assay": "refers to: 5-HETE", "test system": "human whole blood", "setting": "30 µM, with: Escherichia coli", "measurement": "amount", "result": "661 ± 190 pg/mL blood"}
{"Compound": "CC(C)C[C@H](NC(=O)CNC(=O)[C@H](CCC(N)=O)NC(=O)[C@H](CC(C)C)NC(=O)[C@H](CC(C)C)NC(=O)[C@H](CCCNC(=N)N)NC(=O)[C@H](CCC(N)=O)NC(=O)[C@H](CC(C)C)NC(=O)[C@H](CCCNC(=N)N)NC(=O)[C@H](C)NC(=O)CNC(=O)[C@H](CCC(=O)O)NC(=O)[C@H](CCCNC(=N)N)NC(=O)[C@H](CC(C)C)NC(=O)[C@H](CCCNC(=N)N)NC(=O)[C@H](CO)NC(=O)[C@H](CC(C)C)NC(=O)[C@H](CCC(=O)O)NC(=O)[C@H](CO)NC(=O)[C@@H](NC(=O)[C@H](Cc1ccccc1)NC(=O)[C@@H](NC(=O)CNC(=O)[C@H](CC(=O)O)NC(=O)C(C)(C)NC(=O)[C@@H](N)Cc1c[nH]cn1)[C@@H](C)O)[C@@H](C)O)C(=O)N[C@@H](CC(C)C)C(=O)N[C@@H](CCC(N)=O)C(=O)NCC(=O)N[C@@H](CC(C)C)C(=O)N[C@H](C(=O)NCC(=O)N[C@@H](CCCCNC(=O)COCCOCCNC(=O)COCCOCCNC(=O)CC[C@H](NC(=O)CCCCCCCCCCCCCCCCC(=O)O)C(=O)O)C(N)=O)C(C)C", "test system": "DIO C57BL/6J mice", "setting": "dose not given, from day 28, with: GLP-1R agonist co-treatment", "measurement": "dark-phase energy expenditure", "result": "increased"}
{"Compound": "COC1OC(C)C(OC2OC(C)C(OS(=O)(=O)O)C(OC3OC(C)C(OS(=O)(=O)O)C(OS(=O)(=O)O)C3OS(=O)(=O)O)C2OS(=O)(=O)O)C(OS(=O)(=O)O)C1OS(=O)(=O)O (stereo not drawn)", "test system": "human plasma", "setting": "128 µg/mL", "measurement": "thrombin time", "result": "10.2 ± 0.2 s"}
{"Compound": "COc1ccc(C(=O)CCc2cc(C(CCc3ccc(O)cc3OC)c3ccc(O)cc3)c(O)cc2OC)cc1 (racemic)", "test system": "human blood", "setting": "0.3 µM, with: A23187", "measurement": "5-HETE level", "result": "4180 ± 1880 pg/mL"}
{"Compound": "O=C(N[C@@H](Cc1ccc(OCCCCC2CCNCC2)cc1)C(=O)O)c1nc2ccccc2o1.O=C(O)C(F)(F)F", "assay": "platelet aggregation, inhibitor, impedance aggregometry", "test system": "human, whole blood, 1:1 saline", "setting": "75 nM, 6 min, 37 °C, with: ADP 20 µM", "how to read": "higher = more aggregation", "measurement": "aggregation impedance AUC", "result": "33 a.u. and 22.7 a.u. and 22.2 a.u. and 41.9 a.u. and 28.6 a.u."}
{"Compound": "CN(CCNCc1ccncc1[O-])CCNCc1ccncc1[O-].[Cl-].[Fe+3]", "assay": "T1-weighted MRI 4.7 T", "test system": "BALB/c mice", "setting": "0.10 mmol/kg", "measurement": "vena cava signal enhancement", "result": "~50%"}
{"Compound": "COc1cc2c(NC3CCN(C(C)C)CC3)cc(N3CCOCC3)nc2cc1OCCCN1CCCC1", "assay": "TMT quantitative proteomics, refers to: GOT1 (cytoplasmic)", "test system": "APP AD model mice, hippocampus", "setting": "dose not given", "measurement": "normalised protein abundance", "result": "-0.00393 and -0.0224 and -0.0119 and -0.0206 and 0.015 and -0.02 and 0.0171 and 0.0417"}
{"Compound": "COC(=O)C1CN1S(=O)(=O)c1ccc2cc(C)ccc2c1 (stereo not drawn)", "test system": "mouse, Lewis lung carcinoma", "setting": "ip, 100 mg/kg, 264 h", "measurement": "tumour volume", "result": "352 mm3"}
{"Compound": "Cc1[nH]nc2c1N=C(c1ccccc1Cl)c1cnc(N3CCOCC3)cc1N2", "test system": "mouse sample I TNBC PDX", "setting": "oral, 15 mg/kg, 120 h, 5 days per week", "measurement": "tumour growth inhibition", "result": "94%"}
{"Compound": "COC1OC(C)C(OC2OC(C)C(OS(=O)(=O)O)C(OC3OC(C)C(OC4OC(C)C(OS(=O)(=O)O)C(OC5OC(C)C(OC6OC(C)C(OS(=O)(=O)O)C(OC7OC(C)C(OC8OC(C)C(OS(=O)(=O)O)C(OS(=O)(=O)O)C8O)C(OS(=O)(=O)O)C7O)C6O)C(OS(=O)(=O)O)C5O)C4O)C(OS(=O)(=O)O)C3O)C2O)C(OS(=O)(=O)O)C1O (stereo not drawn)", "test system": "human plasma", "setting": "128 µg/mL", "how to read": "reference: control", "measurement": "thrombin time prolongation", "result": "1 fold"}
{"Compound": "CC[C@H](C)[C@H](NC(=O)[C@H](Cc1ccc(O)cc1)NC(=O)[C@H](CCC(=O)O)NC(=O)CNC(=O)[C@H](CCC(=O)O)NC(=O)[C@H](CCCCN)NC(=O)[C@H](CCCCN)NC(=O)[C@H](CC(=O)O)NC(=O)[C@H](Cc1c[nH]cn1)NC(=O)[C@H](Cc1c[nH]cn1)NC(=O)[C@H](Cc1c[nH]cn1)NC(=O)[C@H](Cc1c[nH]cn1)NC(=O)[C@H](Cc1c[nH]cn1)NC(=O)[C@H](Cc1c[nH]cn1)NC(=O)[C@H](Cc1c[nH]cn1)NC(=O)[C@H](Cc1c[nH]cn1)NC(=O)[C@H](Cc1c[nH]cn1)NC(=O)[C@@H](N)Cc1c[nH]cn1)C(=O)N[C@@H](CCCCN)C(=O)N[C@@H](CC(C)C)C(=O)N[C@@H](CCCCN)C(=O)N[C@H](C(=O)N[C@H](C(=O)NCC(=O)N[C@@H](CCC(N)=O)C(=O)N[C@@H](CC(=O)O)C(=O)N[C@@H](CO)C(=O)N[C@@H](CO)C(=O)N[C@@H](CCC(=O)O)C(=O)N[C@H](C(=O)N[C@@H](Cc1c[nH]cn1)C(=O)N[C@@H](Cc1ccccc1)C(=O)N[C@@H](CCCCN)C(=O)N[C@H](C(=O)N[C@@H](CCCCN)C(=O)N[C@@H](CCSC)C(=O)N[C@H](C(=O)N[C@H](C(=O)N[C@@H](Cc1c[nH]cn1)C(=O)N[C@@H](CC(C)C)C(=O)N[C@@H](CCCCN)C(=O)N[C@@H](CCCCN)C(=O)N[C@@H](CC(C)C)C(=O)N[C@@H](CCCCN)C(=O)N[C@@H](CCC(=O)O)C(=O)N[C@@H](CO)C(=O)N[C@@H](Cc1ccc(O)cc1)C(=O)N[C@@H](CS)C(=O)N[C@@H](CCC(N)=O)C(=O)N[C@@H](CCCNC(=N)N)C(=O)N[C@@H](CCC(N)=O)C(=O)O)[C@@H](C)O)[C@@H](C)O)C(C)C)[C@@H](C)CC)[C@@H](C)CC)C(C)C", "test system": "Drosophila α-synuclein A53T transgenic", "setting": "60 µM, 1 day post eclosion, unit not given", "how to read": "reference: untreated", "measurement": "climbing mean difference", "result": 0}
{"Compound": "COC1OC(C)C(OS(=O)(=O)O)C(OC2OC(C)C(OS(=O)(=O)O)C(OC3OC(C)C(OS(=O)(=O)O)C(OS(=O)(=O)O)C3O)C2O)C1O (stereo not drawn)", "test system": "human plasma", "setting": "128 µg/mL", "how to read": "reference: control", "measurement": "thrombin time prolongation", "result": "0.9 fold"}
{"Compound": "Cc1ccc(N(O)/N=N/c2ccc(S(=O)(=O)Nc3nccs3)cc2)cc1", "assay": "DPPH scavenging, absorbance", "setting": "20 µg/mL", "measurement": "inhibition", "result": "24.9%"}
{"Compound": "COC1OC(C)C(OS(=O)(=O)O)C(OC2OC(C)C(OS(=O)(=O)O)C(OS(=O)(=O)O)C2OS(=O)(=O)O)C1OS(=O)(=O)O (stereo not drawn)", "test system": "human plasma", "setting": "128 µg/mL", "how to read": "reference: control", "measurement": "thrombin time prolongation", "result": "0.9 fold"}
{"Compound": "O=C(N[C@@H](Cc1coc2ccccc12)B(O)O)[C@@H]1C[C@H]2CC[C@@H]1O2", "assay": "tumour growth", "test system": "U266B1, mouse, U266B1 multiple myeloma xenograft", "setting": "oral, 1 mg/kg every 2 days, 48 h", "measurement": "T/C", "result": "-82%"}
{"Compound": "COC1OC(C)C(OC2OC(C)C(OS(=O)(=O)O)C(OC3OC(C)C(OC4OC(C)C(OS(=O)(=O)O)C(OC5OC(C)C(OC6OC(C)C(OS(=O)(=O)O)C(OC7OC(C)C(OC8OC(C)C(OS(=O)(=O)O)C(OC9OC(C)C(OS(=O)(=O)O)C(OS(=O)(=O)O)C9O)C8O)C(OS(=O)(=O)O)C7O)C6O)C(OS(=O)(=O)O)C5O)C4O)C(OS(=O)(=O)O)C3O)C2O)C(OS(=O)(=O)O)C1O (stereo not drawn)", "test system": "human plasma", "setting": "128 µg/mL", "measurement": "thrombin time", "result": "10.4 ± 0.2 s"}
{"Compound": "CN1CCC[C@]1(C)/C=C/S(=O)(=O)NC(=O)Nc1c2c(cc3c1CCC3)CCC2", "test system": "human, whole blood ex vivo", "setting": "250 mg single dose, 3 h, single ascending dose, with: LPS and ATP", "measurement": "IL-18 inhibition", "result": "104%"}
{"Compound": "COC1OC(C)C(O)C(OC2OC(C)C(O)C(OC3OC(C)C(O)C(OC4OC(C)C(O)C(OC5OC(C)C(O)C(OC6OC(C)C(O)C(OC7OC(C)C(O)C(OC8OC(C)C(O)C(OC9OC(C)C(O)C(OS(=O)(=O)O)C9OS(=O)(=O)O)C8OS(=O)(=O)O)C7OS(=O)(=O)O)C6OS(=O)(=O)O)C5OS(=O)(=O)O)C4OS(=O)(=O)O)C3OS(=O)(=O)O)C2OS(=O)(=O)O)C1OS(=O)(=O)O (stereo not drawn)", "test system": "human plasma", "setting": "128 µg/mL", "how to read": "reference: control", "measurement": "thrombin time prolongation", "result": "0.9 fold"}
{"Compound": "O=CCNCCOn1c(=O)n(OCCNCCO)c(=O)n(OCCNCCOn2c(=O)n(OCCNCCO)c(=O)n(OCCNCCO)c2=O)c1=O", "assay": "DPPH scavenging", "setting": "500 µg/mL", "measurement": "inhibition", "result": "33.2%"}
{"Compound": "COC1OC(C)C(OC2OC(C)C(OS(=O)(=O)O)C(OC3OC(C)C(OC4OC(C)C(OS(=O)(=O)O)C(OC5OC(C)C(OC6OC(C)C(OS(=O)(=O)O)C(OC7OC(C)C(OC8OC(C)C(OS(=O)(=O)O)C(OC9OC(C)C(OC%10OC(C)C(OS(=O)(=O)O)C(OC%11OC(C)C(OC%12OC(C)C(OS(=O)(=O)O)C(OS(=O)(=O)O)C%12O)C(OS(=O)(=O)O)C%11O)C%10O)C(OS(=O)(=O)O)C9O)C8O)C(OS(=O)(=O)O)C7O)C6O)C(OS(=O)(=O)O)C5O)C4O)C(OS(=O)(=O)O)C3O)C2O)C(OS(=O)(=O)O)C1O (stereo not drawn)", "test system": "human plasma", "setting": "128 µg/mL", "how to read": "reference: control", "measurement": "thrombin time prolongation", "result": "1 fold"}
{"Compound": "COC1CN([C@H]2CC[C@H]([C@@]3(C)Oc4c(Cl)cc(C(=O)NCc5c(SC)cc(C)[nH]c5=O)c(C)c4O3)CC2)C1", "assay": "RNA-seq, refers to: B3GALNT1", "test system": "human, whole blood", "setting": "dose not given, 24 h", "how to read": "reference: pretreatment baseline", "measurement": "log2 fold change", "result": 2.06}
